Measured values gathered from unrelated publications.
Protocols differ between the studies behind these lines. Several values in a cell are separate wells, animals, samples, runs or records. Numbers after ± are the reported error.
Ubiquitin carboxyl-terminal hydrolase 39 ZnF-UBD domain: Ubiquitin carboxyl-terminal hydrolase 39, ZnF-UBD domain (Homo sapiens, UniProt Q53GS9)
Sequence of UniProt Q53GS9 (whole entry, looked up): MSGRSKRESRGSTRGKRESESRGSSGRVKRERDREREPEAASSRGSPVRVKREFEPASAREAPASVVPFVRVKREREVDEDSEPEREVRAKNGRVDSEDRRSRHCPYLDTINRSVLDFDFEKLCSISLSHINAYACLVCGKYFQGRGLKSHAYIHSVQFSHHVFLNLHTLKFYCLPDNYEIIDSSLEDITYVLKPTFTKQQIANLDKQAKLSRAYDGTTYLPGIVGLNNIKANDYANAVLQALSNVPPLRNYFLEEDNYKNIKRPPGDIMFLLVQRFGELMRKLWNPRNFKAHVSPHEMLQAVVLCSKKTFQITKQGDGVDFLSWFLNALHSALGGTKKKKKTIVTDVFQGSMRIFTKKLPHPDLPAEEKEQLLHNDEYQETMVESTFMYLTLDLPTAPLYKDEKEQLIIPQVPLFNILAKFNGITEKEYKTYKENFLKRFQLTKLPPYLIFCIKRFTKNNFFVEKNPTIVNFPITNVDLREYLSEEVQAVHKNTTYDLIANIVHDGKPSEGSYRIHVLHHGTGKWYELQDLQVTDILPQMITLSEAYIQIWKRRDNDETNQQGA

CO[C@H]1C[C@@H]2CC[C@@H](C)[C@@](O)(O2)C(=O)C(=O)N2CCCC[C@H]2C(=O)O[C@H]([C@H](C)C[C@@H]2CC[C@@H](OC(=O)NCCOCCOCCOCCOCCOCCOCCOCCOCCC(=O)N3CCc4cc(Cn5nc(-c6ccc7oc(N)nc7c6)c6c(N)ncnc65)ccc4C3)[C@H](OC)C2)C[C@@H](O)[C@H](C)/C=C(\C)[C@@H](O)[C@@H](OC)C(=O)[C@H](C)C[C@H](C)/C=C/C=C/C=C/1C — result for “lowest active dose”: 6 mg (ctDNA molecular response, measured: PI3K/mTOR pathway variants ctDNA; human, solid tumours; intravenous, dose not given, once weekly).
For O=C(O)CNC(=O)Cc1ccccc1, the sarcomere length was 1.66 µm (ventricular cardiomyocytes, C57BL/6 mouse; dose not given, 0.484 s).
For C[C@@H](NC(=O)N1C(=O)[C@H](Cc2ccnc(N)c2)[C@H]1C(=O)O)C1CCCCC1, the PT AUEC was 148 (human; iv infusion, 0.3 mg/kg/h, 24 h, unit not given; baseline: baseline).
Under “log2 fold change”, N#Cc1ccn2c(-c3ccncc3)c(-c3ccc(F)cc3)nc2c1 is recorded as -0.143 (kinase binding, competitor, MIB/MS competition, measured: HST7; Candida albicans cell lysate; 1 µM; baseline: DMSO).
Under “z-scored log2 fold change”, N[C@@H](COP(=O)(O)O)C(=O)O is recorded as -0.00304 (binding, equilibrium dialysis LC-MS; 5 µM, thermostabilized A2AR-BRIL construct; baseline: no-protein control, direction not given).
C=CCn1c(=O)c2cnc(Nc3ccc(N4CCN(C)CC4)cc3)nc2n1-c1ccc2c(n1)[C@@](O)(CC)CC2: “tumour growth inhibition” 87.8% (OVCAR-3 xenograft, NOD/SCID mouse; 80 mg/kg once daily, :2).
COc1ccccc1[C@H](Cn1c(=O)n(C(C)(C)C(=O)O)c(=O)c2c(C)c(-c3ncco3)sc21)OC1CCOCC1 — result for “blood HDL level”: 43.6 ± 9.91 mg/dL (human; 200 mg, post-treatment).
COc1cc(O)c(CC=C(C)C)c(O)c1C(=O)/C=C/c1ccc(O)cc1: plasma insulin “decreased” (male Tac:SW conventional mice; in high-fat diet, dose not given; baseline: high-fat diet alone).
C=CC(=O)N1CCCN(C(=O)c2cc(Sc3cnc(NC(=O)C4CC4)s3)c(C)cc2OC)C[C@H]1C — result for cytotoxic capacity: “increased” (measured: CD107a; CD8 T cells, mouse, CT26 tumour; dose not given, monotherapy, together with: anti-CD3/anti-CD28 ex vivo 4 h).
N#Cc1ccc2c(c1)[C@H]1CCCN(C(=O)c3ccc4[nH]cnc4c3)[C@H]1C2: “total urinary corticosteroid excretion” 174% (T2DM patients with overweight or obesity, urine; oral, 240 mg, day 1, 0-24 h, multiple dosing, adjusted geometric mean; baseline: baseline day -1, -24-0 h).
For Cc1n[nH]c2ccc(-c3cc(OC[C@@H](N)Cc4ccccc4)cnc3-c3ccoc3)cc12, “log2 fold change” read -0.016 (kinase binding, competitor, MIB/MS competition, measured: GIN4; Candida albicans cell lysate; 100 nM; baseline: DMSO).
For NC(=O)c1cnc2[nH]ccc2c1N[C@@H]1[C@@H]2CC3C[C@H]1C[C@@](O)(C3)C2, “change from baseline” read 0.13% (flow cytometry, measured: CD4+ effector memory T cells; Japanese healthy subjects, peripheral blood; oral, 100 mg twice daily, day 7).
Cc1c(C)n(Cc2cccc(OC(C)(C)C(=O)O)c2)c2ccc(C(=O)N[C@@H](C)c3ccc(C(C)(C)C)cc3)cc12 gave a BV/TV of 14.7 ± 1% (C57BL/6 mice, diet-induced obese, proximal tibia; dose not given).
The maximum induction of Cc1noc(C)c1-c1cc(C(O)(c2ccccn2)c2ccccn2)c2nc(C3CC3)[nH]c2c1 is reported as 64.6% (measured: HEXIM1 expression; human, peripheral blood; 4 mg, day 8, 1599 study).
With O=C(OC(C(F)(F)F)C(F)(F)F)N1CCN(Cc2cccc(Oc3ccccc3)c2)CC1 the k4 was 0.0963 min⁻¹ (PET blocking study; rhesus monkey, brain Pons; 0.01 mg/kg, compound pretreatment, together with: [18F]T-401 tracer).
CC[C@@H](C)[C@H](N)C(=O)O: “z-scored log2 fold change” 0.176 (binding, equilibrium dialysis LC-MS; 5 µM, thermostabilized A2AR-BRIL construct; baseline: no-protein control, direction not given).
C[C@H](Oc1ccc(Br)cc1-c1ccon1)C(=O)O: “difference from placebo” 0.573% (response latency; human, tibialis anterior muscle; 200 mg, 30 Hz+30 s).
Under “DUSP6 mRNA reduction”, Cc1ccc(NC(=O)c2ccnc(C(F)(F)F)c2)cc1-c1cc(OCCO)nc(N2CCOCC2)c1 is recorded as 21.6% (cancer patients, tumour biopsies; dose not given, cycle 15 day 1, median across doses single-agent; baseline: baseline).
Under “NIRF signal reduction”, CC(C)(C)C(=O)Oc1ccc(S(=O)(=O)Nc2ccccc2C(=O)NCC(=O)O)cc1 is recorded as 97% (mouse LPS-induced ALI, isolated lungs ex vivo; intratracheal, 2 µmol/kg, dosed 1 h after LPS; baseline: untreated ALI mice).
O=C(COc1ccc(Cl)cc1)NC12CC(c3nnc([C@H]4C[C@@H](OC(F)(F)F)C4)o3)(C1)C2 — result for “CHAC1 mRNA change”: -65.7% (healthy human, PBMC; 100 mg once daily, day 15, 24 h post-dose, median, together with: sodium arsenite ex vivo; baseline: baseline).
Under “plasma FGF21 level”, OCC(O)CO is recorded as 329 pg/mL and 363 pg/mL and 289 pg/mL and 193 pg/mL and 412 pg/mL and 285 pg/mL and 218 pg/mL and 137 pg/mL (ELISA; female Slc25a13 knockout mice, serum; oral in drinking water, 5 % w/v, 2 days).
O=C(O)CCC(=O)N1CCc2ccccc21 has a Kd of > 1000 µM (Ubiquitin carboxyl-terminal hydrolase 39 ZnF-UBD domain).
O=C(O)Cc1ccc(O)cc1 — result for “z-scored log2 fold change”: -0.184 (binding, equilibrium dialysis LC-MS; 5 µM, thermostabilized A2AR-BRIL construct; baseline: no-protein control, direction not given).
C[C@H]1O[C@@H](O[C@H]2CC[C@@]3(C)[C@@H](CC[C@]4(C)[C@@H]3C=C[C@]35OC[C@@]6(CCC(C)(C)C[C@H]63)[C@@H](O)C[C@]54C)[C@]2(C)CO)[C@H](O)[C@@H](O[C@@H]2O[C@H](CO)[C@@H](O)[C@H](O)[C@H]2O)[C@H]1O has a protein level of 1.2 and 0.964 and 1.06 (Western blot, measured: Deptor; chronic-plus-binge ethanol-fed mice, liver; dose not given, dose level -M, unit not given; baseline: β-actin).
For C[C@@H](O)[C@H](N)C(=O)O, “z-scored log2 fold change” read 0.236 (binding, equilibrium dialysis LC-MS; 5 µM, thermostabilized A2AR-BRIL construct; baseline: no-protein control, direction not given).
c1ccc(-c2n[nH]cc2-c2ccnc3ccccc23)nc1: “log2 fold change” 0.972 (kinase binding, competitor, MIB/MS competition, measured: KIN2; Candida albicans cell lysate; 100 nM; baseline: DMSO).
For NC(=O)NCCCC[C@H](N)C(=O)O, “z-scored log2 fold change” read 0.277 (binding, equilibrium dialysis LC-MS; 5 µM, thermostabilized A2AR-BRIL construct; baseline: no-protein control, direction not given).
For C[C@H]1C[C@H]2CSC(N)=N[C@@]2(c2nc(NC(=O)c3ccc(OC(F)F)cn3)cs2)CO1, “percent change from baseline” read -34.1% (measured: Aβx-40; healthy adults, plasma; 3 mg single dose, 4 h post-dose; baseline: placebo).
For CCO[C@H]1CCN(Cc2c(OC)cc(C)c3[nH]ccc23)[C@H](c2ccc(C(=O)O)cc2)C1, “C3d-positive type III RBCs” read -1.6% (PNH patients, blood; oral, 50 mg then 200 mg, week 4, mean absolute change; baseline: baseline).
NC1(C(=O)N[C@@H](CCO)c2ccc(Cl)cc2)CCN(c2nc[nH]c3nccc2-3)CC1: “overall response rate” 25% (human mCRPC patients; dose not given, together with: enzalutamide).
For Cc1c(NC(=O)c2cccnc2)c(=O)n(-c2ccccc2)n1C, the fibrotic area was 3.8% and 5.4% and 4.6% and 3.9% and 4.2% (histology; Dmd C3333Y mice, heart; dose not given).
For C[C@@H](O)CCOC(=O)C[C@@H](C)O, the metabolite level was -3.9 ± 0.98 µmol/L (measured: C12 acylcarnitine; human, plasma; 60 min, log2-transformed values).
N#Cc1ccc2c(c1)[C@H]1CCCN(C(=O)c3ccc4[nH]cnc4c3)[C@H]1C2 — result for “insulin AUC change”: 56 pmol/h/L (meal tolerance test; human, Phase II trial; 20 mg once daily, day 28, AUC0-2 h, adjusted mean; baseline: baseline).
CC(C)NCC(O)c1ccc(O)c(O)c1 (centres unmarked) has a sarcomere length of 1.53 µm (ventricular cardiomyocytes, C57BL/6 mouse; dose not given, 0.164 s).
OC(CCN1CCCCC1)(c1ccccc1)C1CC2C=CC1C2 (centres unmarked) — result for “EEG Beta2-power Pz-O1”: 0.9 µV² (resting-state EEG; healthy elderly humans; oral, 2 mg, eyes open, LS mean).
For NC(=O)NCc1ccc(O)cc1, the radical scavenging was 53.8 ± 1.7% (ABTS radical; 300 µg/mL).
Cc1cn([C@H]2C[C@H](O)[C@@H](COP(=O)(O)O)O2)c(=O)[nH]c1=O: “z-scored log2 fold change” 0.653 (binding, equilibrium dialysis LC-MS; 5 µM, thermostabilized A2AR-BRIL construct; baseline: no-protein control, direction not given).
With O=P(O)(O)C(Cl)(Cl)P(=O)(O)O the Iba1-positive area was 2.86% (immunostaining; mouse, SAH model, meninges; dose not given, day 7; baseline: total area).
Under “total acid output”, CNCc1cc(-c2ccccc2F)n(S(=O)(=O)c2cccnc2)c1 is recorded as 357 ± 44.9 µEq/3 h (histamine-stimulated acid secretion; pylorus-ligated rat; oral, 2 mg/kg, together with: histamine).
The Kd of O=C(O)CCn1c(=O)oc2ccccc21 is reported as > 1000 µM (Ubiquitin carboxyl-terminal hydrolase 39 ZnF-UBD domain).
O=c1[nH]c(=O)c2nc[nH]c2[nH]1 — result for “z-scored log2 fold change”: 0.644 (binding, equilibrium dialysis LC-MS; 5 µM, thermostabilized A2AR-BRIL construct; baseline: no-protein control, direction not given).
OCc1ccc(O)cc1 gave a radical scavenging of 16 ± 2.55% (DPPH radical; 300 µg/mL).
For COC[C@@H](c1ccc(C(F)(F)F)cc1)N1CCN(C2(C)CCN(C(=O)c3c(C)ncnc3C)CC2)C[C@@H]1C, “change in HIV-1 RNA” read -2.05 log10 copies/mL (HIV-1 infected patients, plasma; dose not given, week 24, with optimized background regimen; baseline: baseline).
COc1cc(C(=O)CCO)ccc1O has a radical scavenging of 96.63 ± 0.48% (ABTS radical; 300 µg/mL).
CO[C@H]1CC[C@H](N2C(=O)CNc3ncc(-c4ccc(C(C)(C)O)nc4)nc32)CC1: “p4EBP1 change from baseline” -54.7% (flow cytometry; stimulated T cells, human, blood; 45 mg single dose, 3 h, mean; baseline: baseline).
Under “delta delta Ct”, COc1ccc(-c2cncc(N[C@@H](C)c3cccc(NC(=O)c4cncc(C)c4)c3)n2)cc1OC is recorded as -1.28 (measured: rno-miR-490-3p; rat SU5416/hypoxia model, lung; dose not given, unit not given; baseline: SU5416/hypoxia vehicle).
NC(=O)c1ccc[n+]([C@@H]2O[C@H](COP(=O)([O-])OP(=O)(O)OC[C@H]3O[C@@H](n4cnc5c(N)ncnc54)[C@H](OP(=O)(O)O)[C@@H]3O)[C@@H](O)[C@H]2O)c1 — result for “z-scored log2 fold change”: -0.111 (binding, equilibrium dialysis LC-MS; 5 µM, thermostabilized A2AR-BRIL construct; baseline: no-protein control, direction not given).
For COc1cc2cc(-c3ccc(CC(=O)Nc4cc(C(C)(C)C(F)(F)F)no4)cn3)cnc2cc1OC, “best overall response PR” read 26% (RECIST v1.1; human RET-altered solid tumours; dose not given, phase I).
CCCCC1(CCCC)CN(c2ccccc2)c2cc(SC)c(OCC(=O)N[C@@H](C(=O)NCC(=O)O)c3ccccc3)cc2S(=O)(=O)C1 gave a plasma C4 of 49.4 ng/mL (measured: 7α-hydroxy-4-cholesten-3-one; human, plasma; 5 mg once daily, day 11).
For Cc1ccc(C(=O)Nc2ccnc(S(N)(=O)=O)c2)c(N2CCCC(F)(F)CC2)n1, capsaicin-sensitized response read “decreased” (behavioural test; rhesus macaque; oral, 1 to 10 mg/kg, 4 h before testing; baseline: vehicle).

For quick reference, copied from above:
Under “plasma FGF21 level”, OCC(O)CO is recorded as 329 pg/mL and 363 pg/mL and 289 pg/mL and 193 pg/mL and 412 pg/mL and 285 pg/mL and 218 pg/mL and 137 pg/mL (ELISA; female Slc25a13 knockout mice, serum; oral in drinking water, 5 % w/v, 2 days).
O=C(O)CCC(=O)N1CCc2ccccc21 has a Kd of > 1000 µM (Ubiquitin carboxyl-terminal hydrolase 39 ZnF-UBD domain).
O=C(O)Cc1ccc(O)cc1 — result for “z-scored log2 fold change”: -0.184 (binding, equilibrium dialysis LC-MS; 5 µM, thermostabilized A2AR-BRIL construct; baseline: no-protein control, direction not given).
C[C@H]1O[C@@H](O[C@H]2CC[C@@]3(C)[C@@H](CC[C@]4(C)[C@@H]3C=C[C@]35OC[C@@]6(CCC(C)(C)C[C@H]63)[C@@H](O)C[C@]54C)[C@]2(C)CO)[C@H](O)[C@@H](O[C@@H]2O[C@H](CO)[C@@H](O)[C@H](O)[C@H]2O)[C@H]1O has a protein level of 1.2 and 0.964 and 1.06 (Western blot, measured: Deptor; chronic-plus-binge ethanol-fed mice, liver; dose not given, dose level -M, unit not given; baseline: β-actin).
For C[C@@H](O)[C@H](N)C(=O)O, “z-scored log2 fold change” read 0.236 (binding, equilibrium dialysis LC-MS; 5 µM, thermostabilized A2AR-BRIL construct; baseline: no-protein control, direction not given).
c1ccc(-c2n[nH]cc2-c2ccnc3ccccc23)nc1: “log2 fold change” 0.972 (kinase binding, competitor, MIB/MS competition, measured: KIN2; Candida albicans cell lysate; 100 nM; baseline: DMSO).
For NC(=O)NCCCC[C@H](N)C(=O)O, “z-scored log2 fold change” read 0.277 (binding, equilibrium dialysis LC-MS; 5 µM, thermostabilized A2AR-BRIL construct; baseline: no-protein control, direction not given).
For C[C@H]1C[C@H]2CSC(N)=N[C@@]2(c2nc(NC(=O)c3ccc(OC(F)F)cn3)cs2)CO1, “percent change from baseline” read -34.1% (measured: Aβx-40; healthy adults, plasma; 3 mg single dose, 4 h post-dose; baseline: placebo).
